Assay results gathered from unrelated publications.
Each line is one published result; not all experiments were run side by side. ± gives the spread as reported.

SMILES	test	system	conditions	tissue uptake
CC[C@H](C)[C@H](NC(=O)[C@H](CCCNC(=N)N)NC(=O)[C@H](CCCCN)NC(=O)[C@H](Cc1ccc(O)cc1)NC(=O)[C@H](CC(=O)O)NC(=O)[C@H](C)NC(=O)CNC(=O)CCOCCOCCOCCNC(=O)CN1CCN(CC(=O)O)CCN(CC(=O)O)CCN(CC(=O)O)CC1)C(=O)N[C@H](C(=O)N[C@H](C(=O)N[C@@H](CCCCN)C(=O)N[C@H](C(=O)N[C@@H](CC(N)=O)C(N)=O)C(C)C)C(C)C)[C@@H](C)O [copper-64 labelled]	ex vivo gamma counting	C57BL/6J male mice, B16-F10 tumour, bone	intravenous, 1.85 MBq, 20 min	0.899 ± 0.061 %ID/g
CSCC[C@H](NC(=O)CNC(=O)[C@H](CCCCN)NC(=O)[C@H](CC(C)C)NC(=O)[C@@H]1CCCN1C(=O)[C@H](CO)NC(=O)[C@H](Cc1c[nH]cn1)NC(=O)[C@H](Cc1c[nH]c2ccccc12)NC(=O)[C@H](CCCNC(=N)N)NC(=O)[C@H](CC(C)C)NC(=O)[C@H](CCCNC(=N)N)NC(=O)[C@H](Cc1c[nH]c2ccccc12)NC(=O)[C@H](CS)NC(=O)CCCCCNC(=O)CN1CCN(CC(=O)O)CCN(CC(=O)O)CCN(CC(=O)O)CC1)C(=O)O [copper-64 labelled]	PET	C57BL/6J mice, B16-F10 tumour, liver	intravenous, 18 h	6.23 ± 0.41 %ID/g
CC(C)C[C@@H](NC(=O)[C@@H](CCCNC(=N)N)NC(=O)[C@@H](Cc1c[nH]cn1)NC(=O)[C@@H](Cc1c[nH]c2ccccc12)NC(=O)[C@@H](Cc1c[nH]cn1)NC(=O)[C@@H](Cc1ccccc1)NC(=O)[C@H](NC(=O)[C@@H](Cc1ccc(O)cc1)NC(=O)CNC(=O)CNC(=O)CCOCCOCCOCCNC(=O)CN1CCN(CC(=O)O)CCN(CC(=O)O)CC1)[C@H](C)O)C(=O)N[C@H](CC(N)=O)C(=O)N1CCC[C@@H]1C(=O)O [gallium-68 labelled]	gamma counting	C57BL/6 mice, male, brain	intravenous, 1.85 MBq, 120 min	0.56 ± 0.07 %ID/g
CC[C@H](C)[C@H](NC(=O)[C@H](CCCCN)NC(=O)CNC(=O)[C@H](CC(C)C)NC(=O)[C@H](Cc1ccccc1)NC(=O)[C@H](CCCCN)NC(=O)[C@H](CO)NC(=O)[C@H](Cc1ccccc1)NC(=O)[C@H](Cc1c[nH]c2ccccc12)NC(=O)[C@H](CCC(N)=O)NC(=O)[C@@H](NC(=O)[C@H](Cc1ccccc1)NC(=O)CCCCCNC(=O)CN1CCN(CC(=O)O)CCN(CC(=O)O)CCN(CC(=O)O)CC1)C(C)C)C(=O)N[C@@H](CCC(=O)O)C(=O)N1CCC[C@H]1C(=O)N[C@H](CC(=O)O)C(=O)N[C@H](C(=O)N[C@@H](CO)C(=O)N[C@@H](CCC(N)=O)C(=O)N[C@H](C(=O)N[C@@H](CCC(N)=O)C(=O)N[C@@H](CC(=O)O)C(=O)N1CCC[C@H]1C(=O)N[C@@H](CC(N)=O)C(=O)N[C@@H](CC(=O)O)C(=O)N[C@@H](CCC(N)=O)C(=O)N[C@@H](Cc1ccc(O)cc1)C(=O)N[C@@H](CCC(=O)O)C(=O)N1CCC[C@H]1C(=O)N[C@@H](Cc1ccccc1)C(=O)O)C(C)C)C(C)C [copper-64 labelled]		C57BL/6 mice, male, MC-38 tumour-bearing, kidneys	2 h, vehicle-treated	34.1 ± 3.7 %ID/g
C[C@H](O)[C@@H](NC(=O)[C@H]1CCCN1C(=O)[C@@H](CCCCN)NC(=O)[C@@H](CO)NC(=O)[C@@H](Cc1ccc(O)cc1)NC(=O)[C@@H](CC(N)=O)NC(=O)CCOCCOCCOCCNC(=O)CN1CCN(CC(=O)O)CCN(CC(=O)O)CCN(CC(=O)O)CC1)C(=O)N[C@H](CC(=O)O)C(=O)N[C@H](CCCNC(=N)N)C(=O)N[C@H](CCC(N)=O)C(=O)N[C@H](Cc1ccc(O)cc1)C(=O)N[C@H](Cc1c[nH]cn1)C(=O)N[C@H](Cc1ccccc1)C(N)=O [gallium-68 labelled]		BALB/c nude mice U-87 MG tumour, lung	intravenous, 1.85 MBq, 2 h, radiolabelled	0.09 ± 0.02 %ID/g
CC[C@H](C)[C@H](NC(=O)[C@H](CCCNC(=N)N)NC(=O)[C@H](CCCCN)NC(=O)[C@H](Cc1ccc(O)cc1)NC(=O)[C@H](CC(=O)O)NC(=O)[C@H](C)NC(=O)CNC(=O)CCOCCOCCOCCNC(=O)CN1CCN(CC(=O)O)CCN(CC(=O)O)CCN(CC(=O)O)CC1)C(=O)N[C@H](C(=O)N[C@@H](CC(C)C)C(=O)N[C@@H](CCCCN)C(=O)N[C@H](C(=O)N[C@@H](CC(N)=O)C(N)=O)C(C)C)[C@@H](C)O [copper-64 labelled]	ex vivo gamma counting	C57BL/6J male mice, B16-F10 tumour, blood	intravenous, 1.85 MBq, 5 min	6.83 ± 0.356 %ID/g
[2H]C([2H])([18F])[C@]([2H])(N)C(=O)O	PET	athymic nude mice, U-87 MG, muscle	dose not given, 15 min post-injection	1.24 ± 0.09 %ID/cc
CCCC[C@H]1C(=O)N(C)[C@@H](CCCC)C(=O)N[C@@H](CCCNC(=O)CN2CCN(CC(=O)O)CCN(CC(=O)O)CCN(CC(=O)O)CC2)C(=O)N[C@H](C(=O)NCC(N)=O)CSCC(=O)N[C@@H](Cc2ccc(O)cc2)C(=O)N(C)[C@@H](C)C(=O)N[C@@H](CC(N)=O)C(=O)N2CCC[C@H]2C(=O)N[C@@H](Cc2c[nH]cn2)C(=O)N[C@@H](CC(C)C)C(=O)N(C)CC(=O)N[C@@H](Cc2c[nH]c3ccccc23)C(=O)N[C@@H](CO)C(=O)N[C@@H](Cc2c[nH]c3ccccc23)C(=O)N1C [gallium-68 labelled]		NOD/SCID mice with CHO-hPD-L1 xenograft, liver	30 min post injection	6.77 ± 0.35 %ID/g
